Assay results collected from several papers.
Parts stem from different laboratories: compare values within a part only. Substitutions count along the parent as printed.

Sample 1 — method: RNA Bind-n-Seq; molecule type: RNA; matrix: in vitro; tested at: not given; reference: input RNA pool; reading: higher = stronger binding
Target: RING finger protein unkempt homolog, zinc fingers 1-6, GST-SBP tag (UNK, Homo sapiens, UniProt Q9C0B0, residues 30-357)
Setting: RNA with constant flanks, human and mouse sites, ends assumed
Shared flanks, not repeated: GGGAGUUCUACAGUCCGACGAUC … CAACAGAGGAUUGAGCAUCA
Residues (chain): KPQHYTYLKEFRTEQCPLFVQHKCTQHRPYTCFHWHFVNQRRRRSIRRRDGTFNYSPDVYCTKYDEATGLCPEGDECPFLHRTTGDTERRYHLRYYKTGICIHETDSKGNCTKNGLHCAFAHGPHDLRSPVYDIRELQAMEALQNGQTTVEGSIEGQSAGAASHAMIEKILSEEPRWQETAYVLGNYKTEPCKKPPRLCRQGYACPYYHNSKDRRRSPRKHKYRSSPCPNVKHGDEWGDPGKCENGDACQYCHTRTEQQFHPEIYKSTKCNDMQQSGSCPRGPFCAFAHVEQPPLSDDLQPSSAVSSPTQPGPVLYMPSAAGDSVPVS
Oligonucleotide	bound/input enrichment [ratio]
ACCGCCAUCUACUGCUUCCUACGCUGCAUGGAGCCAGACCCUGAGAUCCCUUCUGCCUUCAAUAGCCUCCAAAGGACUCUCAUUUAUUCCAUCUCACUUGGUGGGGACACAGACACCAUU	0.306
UUGAAGGUGUUAUAUCAGUACAAGGAGAAGCAAUAUAUGGCUCCUCGAGUUUUACAACAGACAUUAAAUUAUAUUAAUCAAGGAGUUUCUCAUGCUCUCACCUGGAAGAAUCUGAAGCCC	0.413
GUGUCGAGUUCCUUGGAGCAAUGAUCUUUGCUGCCAAGAUAUCUCAUUUCUUCUUGUUUCUUCUUCGCCCACGACCACUUCACAAACACCGACCAACAGCAAACAACAACCCACCCCGCU	0.447
GGCUCUGCACAGAAGGGCCUGCAAGUGGAUCUGCAGUCUGACGGGGCAGCAGCAGAAGAUAUAGUGGCAAGUGAGCAGUCUCUAGGCCAAAAACUUGUGAUCUGGGGAACAGAUGUAAAU	0.319
UACUUCGAAUGCCAGGCCAAGUAUGGCGCCUUUGUCAAGCCAGCAGUCGUGACGGUGGGGGACUUCCCGGAGGAGGACUACGGGUUGGACGAGAUAUGACACCUAAGGAAUUCCCCUGCU	0.062
GUUUAGAAGUGCAGUAGAGAGAAAGCAAUUGGCCCUCAUUCUCUGGACAGACUUUUGAUGGAAAGAAUUUCUCUGAUAGGUGUUUGACUGGUUAUCUAAACGUUGCUGUUAAGUAGUCUU	0.834
AAGAACAUUCGGAUUGUGGUGAUGAACAAUCUUUUACCAAGAUCGGUAAAAAUGCAUAUCAAAUAUGACCUCAAAGGCUCAACCUACAAACGGCGGGCUUCCCAGAAAGAGCGAGAGAAG	0.158
GUUUCAAAUUUCCUGGUUAUGGGAGGAUUCCAGCUUCUUGCUAAGCCUGCCAUUGAUUUCCUAAAUAAAAACCAAGAACUCUUGCAAGAUUUGUCAGAAGUGAAUGAUGAGAACACUCAG	0.182
AGUCCACUGAUGCAGUGCUCAUUUUACAAUAGAUCAUCUCCUGUACACAUCAUAGCCACUAGCAAAAGUUUACAUUCCUAUGCACGCCCUCCACCAGUGUCCUCUUCUUCGAAGAGUGAA	2.16
UAACAGUCAAUCAGCAACUGCAGGACUCACGAAAGGUACAAGUCUGUGGUAUCAUCUUGCUAGCAUCUAUGUUGUGGUGUGCCAAGCCUGAUGGGCAGUAAGCUUCCUGUGAUGUUUGUC	0.0693
GACAGAAACAUGUCUUGACUGUUAGUUGUCCACAAAUCUUCAGUAUUUUCUCCACUUCAUUUUUAAGAAAGGAAGCAACAGAUAGAUGUUGCUCUUUCACCUGGGUGUCUGGGCUCAAGC	0.321

Sample 2 — method: protein-binding microarray; molecule type: double-stranded DNA, one strand shown; matrix: in vitro; tested at: 2200 nM top; setting: 60-bp whole probe; with: salmon DNA 0.4 mg/ml; reference: random background probes; reading: higher = stronger binding; shared flanks, not repeated: GCCTAGCAC … GTCTTGATTCGCTTGACGCTGCTG
Target: Interferon regulatory factor 7, full length, phosphomimetic (IRF7, Homo sapiens, UniProt Q92985, residues 1-503, S471D/S472D/S475D/S476D/S477D/S483D/S484D/S487D)
Target sequence (chain): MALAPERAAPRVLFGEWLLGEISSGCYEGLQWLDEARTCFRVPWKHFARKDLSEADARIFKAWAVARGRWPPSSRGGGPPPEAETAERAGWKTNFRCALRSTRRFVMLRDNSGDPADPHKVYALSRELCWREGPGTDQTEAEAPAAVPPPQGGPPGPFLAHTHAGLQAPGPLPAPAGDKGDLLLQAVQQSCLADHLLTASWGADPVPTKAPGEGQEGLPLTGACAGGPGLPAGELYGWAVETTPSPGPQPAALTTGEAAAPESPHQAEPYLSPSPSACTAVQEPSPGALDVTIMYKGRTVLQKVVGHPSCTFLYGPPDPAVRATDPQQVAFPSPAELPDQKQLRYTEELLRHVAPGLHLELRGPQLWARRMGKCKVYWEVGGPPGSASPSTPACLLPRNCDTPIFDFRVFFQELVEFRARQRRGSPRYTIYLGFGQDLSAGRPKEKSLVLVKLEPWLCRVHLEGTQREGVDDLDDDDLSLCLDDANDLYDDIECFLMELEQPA
Oligonucleotide	fitted relative affinity [z-score]
GACGGTCTCGGACTGGGGATGTGCTAG	-0.446
GACGGTATCCTGCTCCTGACGTGCTAG	0.778
GACGAACTGGGGTTTCGAGCCGTGCTA	0.513
TCACAGTTTAATATCTAACTGTGCTAG	0.589
CTCTGTTTATGTCTGGGTATGTGCTAG	1.93
GAAGGTATCGGTTTCGGGACGTGCTAG	4.31
TTAGGACTGAACTTTCGGTTAGTGCTA	5.63
TTAGGTCTCCTTTTACTTTAGTGCTAG	1.3
TTAGGTATGGACTTTCGGTTAGTGCTA	5.36
GTAGATGCCTTTCTCTTGGAGTGCTAG	0.644
TTAGACCTCAGTATCGATTAGTGCTAG	0.0625
GACGGTTTCGGGTTTCGGAACGTGCTA	9.63
GTCGGACTGGACTTTCGGGACGTGCTA	2.4
TTAGATATCGGATATCGATTAGTGCTA	-0.0414
TCATCATTATTGTGTCAAACTGTGCTA	0.752

Sample 3 — method: RNA Bind-n-Seq; molecule type: RNA; matrix: in vitro; tested at: 200 nM; setting: whole 134-nt RNA, ends assumed; with: 150 mM LiCl; reference: input library; reading: higher = stronger binding; all molecules: 7-deaza-guanosine replaces G
Target: Fragile X messenger ribonucleoprotein 1, C-terminal low-complexity region (Fmr1, Mus musculus, UniProt P35922)
Shared flanks, not repeated: GGGAGUUCUACAGUCCGACGAUC … UGGAAUUCUCGGGUGUCAAGG
Oligonucleotide	log2 enrichment
UCAAGUCCUGUGCUACACAUCGUAUGUACCGAAUCGGGGAAGGGGAAGGGAAGGAAAGUAUUAUGUUACGCCGUUCGGAUCUGCACUUCC	-1.07
UCCUCAAGUCCUGUGCUACACAUCGUAUGUACCGAAUCGGGUGGGUGGGUGGAAAGUAUUAUGUUACGCCGUUCGGAUCUGCACUUCCAG	0.68
GUCCUGUGCUACACAUCGUAUGUACCGAAUCGGGAAAAAGGGUUUUUUUGGGAAAGGGAAAGUAUUAUGUUACGCCGUUCGGAUCUGCAC	-1.96
AAGUCCUGUGCUACACAUCGUAUGUACCGAAUCGGUUUUUGGUUUUUGGAAAAAGGAAAGUAUUAUGUUACGCCGUUCGGAUCUGCACUU	-2.17
CAAGUCCUGUGCUACACAUCGUAUGUACCGAAUCGGGGAAGGGGAAGGGAAGGGGAAAGUAUUAUGUUACGCCGUUCGGAUCUGCACUUC	-0.0635
CCUCAAGUCCUGUGCUACACAUCGUAUGUACCGAAUCGGAAAGGUGGUUUGGAAAGUAUUAUGUUACGCCGUUCGGAUCUGCACUUCCAG	-1.32
GCAGGAAUUAAAAACAAAUGGAAAUGCUUCGGAUAGUGGCAGGGGUGGGGGUUGCUAAGGAAAGGGUGGGAUGGGAGUGGGUAAAGAGUU	1.72
UAACUUUAGAGGAGGAUCUGAUGGAUCUGGCAGUGGACGUGGAUUUGGGGAUGGCUAUAAUGGGUAUGGAGGAGGACCUGGAGGUGGCAA	0.0912
GCAGGAAGUAAAAACAAAUGGAAAUGCUUCGGAUAGUGGCAGGGGUGGGGGUUGCUAAGGAAAGGGUGGGAUGGGAGUGAGUAAAGAGUU	1.59
UCAAGUCCUGUGCUACACAUCGUAUGUACCGAAUCGGGGAAGGGAAGGGAAGGGGAAAGUAUUAUGUUACGCCGUUCGGAUCUGCACUUC	-0.442
CCUGUGCUACACAUCGUAUGUACCGAAUCGGGAAAAAAGGGAAAAAAGGGAAAAAAGGGGAAAGUAUUAUGUUACGCCGUUCGGAUCUGC	-0.173

Sample 4 — target: CCNB3, cyclin fold, Cln2 fusion (human); method: yeast growth competition, sequencing; matrix: yeast; setting: weak parent motif; reference: not given; reading: higher = stronger binding
Starting sequence: CDKN1B docking peptide (human); PSACRNLFGPVDH
Change	normalised enrichment score
PSACNNLFGPVDH [R5N]	0.0475
PSACRNLFGIVDH [P10I]	0.0767
PSACRNLFGAVDH [P10A]	0.0729
PSACMNLFGPVDH [R5M]	0.203
PSACRNHFGPVDH [L7H]	-0.00141
PSHCRNLFGPVDH [A3H]	0.235
LSACRNLFGPVDH [P1L]	0.221
PSACRTLFGPVDH [N6T]	0.563
PSYCRNLFGPVDH [A3Y]	0.32
PSAWRNLFGPVDH [C4W]	0.659
PSACVNLFGPVDH [R5V]	0.271
PSACRQLFGPVDH [N6Q]	0.336
PSACRNLFGPVYH [D12Y]	0.473
PSAVRNLFGPVDH [C4V]	0.203

Sample 5 — method: competition protein-binding microarray; molecule type: double-stranded DNA, one strand shown; matrix: in vitro; tested at: 2 µM; with: Cbf1 competitor, 0.05 µM; reading: higher = stronger binding; shared flanks, not repeated: … GTCTTGATTCGCTTGACGCTGCTG
Target: Phosphate system positive regulatory protein PHO4, full length, GST-tagged (PHO4, Saccharomyces cerevisiae, UniProt P07270, residues 1-312)
Setting: whole 60-bp probe, lowest competitor level
Target sequence (chain): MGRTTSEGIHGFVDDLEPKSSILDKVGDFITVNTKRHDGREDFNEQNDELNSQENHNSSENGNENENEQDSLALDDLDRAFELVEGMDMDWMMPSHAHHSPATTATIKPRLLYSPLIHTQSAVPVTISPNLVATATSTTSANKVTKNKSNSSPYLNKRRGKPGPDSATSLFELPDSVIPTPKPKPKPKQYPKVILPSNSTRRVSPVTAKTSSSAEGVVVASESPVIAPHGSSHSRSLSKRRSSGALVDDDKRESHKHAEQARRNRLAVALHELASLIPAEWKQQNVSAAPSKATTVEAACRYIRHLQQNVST
Oligonucleotide	fluorescence intensity
CGGGCCTCAGGCAGCCACGAGGTAGACGGGCTCAGG	10000 a.u.
GGTTTGTCCGTTTTATGACTCTCCTCAACAAGATAT	3670 a.u.
CTTTCCCGATCTTGATAAGTGGGTGTAGCACATTTG	4790 a.u.
GGAGCCCTTGCACTCCACGTGGCCTGCCTCCCTGGG	18600 a.u.
CGGGGTTAAGTTTTTCACGTGCGTTGCTTGCAGCAG	15300 a.u.
CCAGTAACTTCGTTGACCGTGATGGTCCGTTCATTT	4780 a.u.
TGCGCAACAACTTGTATTGTGGGTGTATGTCTAGAA	4670 a.u.
GTCTTGTCTCATTGACTGGTGGGTGTCCCCACTTCA	4480 a.u.
CTTCTGTAAATTTGTCACGGTACTTGACGCGCCCCG	4530 a.u.
CTCCGGCGGCCATTTTACGTGACGGAGCATCCCTTA	3060 a.u.
CGCTTGAAAAGGAATCATGTGCCTATTTTCCTCATT	8420 a.u.
CTAAACTACGCCTGGCACGTGGGTAATGAAGTATAC	16400 a.u.
CTTCTGTAAATTTGTCACTTCACTTGACGCGCCCCG	2780 a.u.
GATTTTGTTCTTTGTCATGTGATTTTAATCTGTCAA	6080 a.u.
CTTTCCCGATCTTGTGGAGTGGGTGTAGCACATTTG	5210 a.u.
TTAGATGACTGTTAGCACGTAATGATTTGGCCATGA	5590 a.u.
